Published values collected from several papers.
Each numbered part is a random draw from the data of one study; scales do not carry over between parts. “And” joins repeats or separate records; there may be more than shown.
Chain of UniProt Q16832 (whole entry, looked up): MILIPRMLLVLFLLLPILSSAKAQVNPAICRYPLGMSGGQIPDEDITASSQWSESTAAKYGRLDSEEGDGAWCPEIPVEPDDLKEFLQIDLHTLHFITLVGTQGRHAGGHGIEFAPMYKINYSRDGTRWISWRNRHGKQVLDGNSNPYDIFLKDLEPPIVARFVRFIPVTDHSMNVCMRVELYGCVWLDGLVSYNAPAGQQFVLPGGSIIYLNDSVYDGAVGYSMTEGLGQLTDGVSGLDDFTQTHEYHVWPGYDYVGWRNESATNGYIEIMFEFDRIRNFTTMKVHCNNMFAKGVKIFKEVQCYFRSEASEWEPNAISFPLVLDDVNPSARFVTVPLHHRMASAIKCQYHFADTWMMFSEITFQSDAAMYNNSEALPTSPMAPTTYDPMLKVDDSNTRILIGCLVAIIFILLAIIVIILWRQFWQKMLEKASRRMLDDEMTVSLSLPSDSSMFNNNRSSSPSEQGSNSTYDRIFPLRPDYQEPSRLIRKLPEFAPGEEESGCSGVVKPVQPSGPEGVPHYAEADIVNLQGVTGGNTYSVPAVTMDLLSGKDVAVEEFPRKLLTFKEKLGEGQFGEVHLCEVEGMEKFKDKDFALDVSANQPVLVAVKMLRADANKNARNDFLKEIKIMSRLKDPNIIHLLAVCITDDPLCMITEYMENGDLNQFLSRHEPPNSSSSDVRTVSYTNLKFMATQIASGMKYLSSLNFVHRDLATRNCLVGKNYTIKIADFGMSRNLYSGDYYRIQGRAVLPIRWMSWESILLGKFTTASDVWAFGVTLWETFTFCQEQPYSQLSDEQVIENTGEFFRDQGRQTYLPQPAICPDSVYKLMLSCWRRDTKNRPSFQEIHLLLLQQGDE
Chain of UniProt Q14164 (whole entry, looked up): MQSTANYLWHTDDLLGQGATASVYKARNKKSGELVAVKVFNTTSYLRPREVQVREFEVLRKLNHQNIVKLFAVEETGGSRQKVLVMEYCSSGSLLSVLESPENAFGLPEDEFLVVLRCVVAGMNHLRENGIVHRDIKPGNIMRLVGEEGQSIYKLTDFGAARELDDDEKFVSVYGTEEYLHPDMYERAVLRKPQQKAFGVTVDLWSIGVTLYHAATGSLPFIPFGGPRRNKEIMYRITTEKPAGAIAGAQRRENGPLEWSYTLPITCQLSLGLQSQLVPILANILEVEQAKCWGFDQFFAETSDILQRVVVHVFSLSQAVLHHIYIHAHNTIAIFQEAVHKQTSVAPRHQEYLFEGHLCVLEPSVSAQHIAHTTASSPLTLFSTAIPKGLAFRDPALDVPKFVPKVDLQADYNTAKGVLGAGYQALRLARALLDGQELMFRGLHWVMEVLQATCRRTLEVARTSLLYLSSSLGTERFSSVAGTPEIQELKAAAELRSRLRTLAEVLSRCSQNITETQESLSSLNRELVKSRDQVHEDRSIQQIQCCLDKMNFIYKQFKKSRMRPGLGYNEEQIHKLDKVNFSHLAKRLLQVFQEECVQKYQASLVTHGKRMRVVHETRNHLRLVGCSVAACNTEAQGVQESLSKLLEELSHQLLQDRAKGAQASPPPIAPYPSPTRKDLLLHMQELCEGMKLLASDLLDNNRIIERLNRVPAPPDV
Chain of UniProt Q8N568 (whole entry, looked up): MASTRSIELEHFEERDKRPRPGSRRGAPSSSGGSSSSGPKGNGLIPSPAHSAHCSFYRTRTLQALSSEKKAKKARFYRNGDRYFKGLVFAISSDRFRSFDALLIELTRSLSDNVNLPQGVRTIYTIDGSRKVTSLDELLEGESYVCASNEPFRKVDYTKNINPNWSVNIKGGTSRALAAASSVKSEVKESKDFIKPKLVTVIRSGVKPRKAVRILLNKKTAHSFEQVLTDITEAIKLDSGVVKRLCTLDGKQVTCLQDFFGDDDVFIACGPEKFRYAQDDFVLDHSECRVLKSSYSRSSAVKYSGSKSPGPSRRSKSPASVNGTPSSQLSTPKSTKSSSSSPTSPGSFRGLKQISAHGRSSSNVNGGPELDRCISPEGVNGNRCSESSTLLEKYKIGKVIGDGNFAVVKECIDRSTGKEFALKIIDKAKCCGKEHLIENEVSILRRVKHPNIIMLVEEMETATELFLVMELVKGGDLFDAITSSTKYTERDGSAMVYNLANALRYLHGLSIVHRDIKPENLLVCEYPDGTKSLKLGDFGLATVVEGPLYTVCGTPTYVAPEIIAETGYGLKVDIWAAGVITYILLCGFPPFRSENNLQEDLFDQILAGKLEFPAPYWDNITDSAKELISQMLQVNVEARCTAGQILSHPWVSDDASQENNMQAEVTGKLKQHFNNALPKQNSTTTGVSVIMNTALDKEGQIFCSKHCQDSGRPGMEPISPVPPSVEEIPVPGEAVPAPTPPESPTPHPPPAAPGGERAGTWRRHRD
Chain of UniProt Q8NEV4 (whole entry, looked up): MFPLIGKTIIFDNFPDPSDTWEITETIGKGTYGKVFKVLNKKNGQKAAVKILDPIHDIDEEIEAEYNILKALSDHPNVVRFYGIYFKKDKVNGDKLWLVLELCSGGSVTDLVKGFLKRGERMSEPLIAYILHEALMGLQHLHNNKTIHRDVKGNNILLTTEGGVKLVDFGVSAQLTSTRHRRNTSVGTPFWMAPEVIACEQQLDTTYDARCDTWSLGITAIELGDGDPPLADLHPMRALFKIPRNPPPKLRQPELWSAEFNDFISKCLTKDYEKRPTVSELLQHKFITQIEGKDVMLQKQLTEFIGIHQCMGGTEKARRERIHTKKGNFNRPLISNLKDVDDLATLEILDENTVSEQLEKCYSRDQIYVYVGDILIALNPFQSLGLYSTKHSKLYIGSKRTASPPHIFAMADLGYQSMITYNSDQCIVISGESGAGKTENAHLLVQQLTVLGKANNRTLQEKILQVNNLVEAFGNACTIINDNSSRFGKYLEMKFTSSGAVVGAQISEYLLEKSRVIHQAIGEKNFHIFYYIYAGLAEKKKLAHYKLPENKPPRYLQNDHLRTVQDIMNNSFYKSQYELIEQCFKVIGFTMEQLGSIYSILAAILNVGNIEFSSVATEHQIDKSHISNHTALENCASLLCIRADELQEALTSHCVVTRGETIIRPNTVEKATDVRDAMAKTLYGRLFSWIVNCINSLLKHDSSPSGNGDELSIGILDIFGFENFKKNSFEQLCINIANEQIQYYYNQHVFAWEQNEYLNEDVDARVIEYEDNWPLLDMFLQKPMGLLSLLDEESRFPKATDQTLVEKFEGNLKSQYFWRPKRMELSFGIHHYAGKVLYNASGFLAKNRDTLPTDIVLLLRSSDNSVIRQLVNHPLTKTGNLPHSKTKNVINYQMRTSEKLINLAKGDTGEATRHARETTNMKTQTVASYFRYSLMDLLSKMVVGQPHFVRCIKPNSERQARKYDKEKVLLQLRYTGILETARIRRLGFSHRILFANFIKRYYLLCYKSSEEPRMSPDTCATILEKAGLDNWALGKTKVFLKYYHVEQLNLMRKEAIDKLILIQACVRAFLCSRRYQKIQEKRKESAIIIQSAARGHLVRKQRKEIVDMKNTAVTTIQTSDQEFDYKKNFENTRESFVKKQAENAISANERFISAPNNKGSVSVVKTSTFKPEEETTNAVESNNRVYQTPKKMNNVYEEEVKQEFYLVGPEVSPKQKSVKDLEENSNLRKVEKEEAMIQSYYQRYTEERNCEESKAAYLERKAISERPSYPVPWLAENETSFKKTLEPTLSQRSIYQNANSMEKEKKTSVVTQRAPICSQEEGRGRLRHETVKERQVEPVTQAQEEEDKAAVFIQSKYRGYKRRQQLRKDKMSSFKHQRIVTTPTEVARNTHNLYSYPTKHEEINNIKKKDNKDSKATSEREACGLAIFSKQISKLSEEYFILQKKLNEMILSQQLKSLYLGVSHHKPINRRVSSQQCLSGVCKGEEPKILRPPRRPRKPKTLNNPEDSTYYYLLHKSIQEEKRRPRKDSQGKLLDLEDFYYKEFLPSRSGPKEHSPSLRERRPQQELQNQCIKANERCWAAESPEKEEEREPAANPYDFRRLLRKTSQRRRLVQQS

Block 1 — cell line: HaCaT; tested at: 100 µM; time: 36 h; endpoint: viability
CCC(=O)OCC(=O)[C@@]1(OC(=O)CC)[C@@H](C)C[C@H]2[C@@H]3CCC4=CC(=O)C=C[C@]4(C)[C@@]3(F)[C@@H](O)C[C@@]21C: 96%
CN[C@@H]1[C@@H](O[C@H]2O[C@H](CO)[C@@H](N)[C@H](O)[C@H]2O)O[C@H]2C[C@@H](N)[C@@H](O[C@H]3[C@H](O)[C@@H](O)[C@H](N)C[C@@H]3N)O[C@@H]2[C@@H]1O: 96.9%
COCCCOc1cc(C[C@@H](C[C@H](N)[C@@H](O)C[C@H](C(=O)NCC(C)(C)C(N)=O)C(C)C)C(C)C)ccc1OC: 94.5%
COc1cc(N)c(Cl)cc1C(=O)N[C@@H]1CCN(CCCOc2ccc(F)cc2)C[C@@H]1OC (racemic): 81.9%
CCNC(=O)CCC/C=C\C[C@@H]1[C@@H](/C=C/[C@@H](O)CCc2ccccc2)[C@H](O)C[C@@H]1O: 66.2%
O=C1CN(/N=C/c2ccc(-c3ccc([N+](=O)[O-])cc3)o2)C(O)=N1: 69.5%
NCCCC[C@H](N[C@@H](CCc1ccccc1)C(=O)O)C(=O)N1CCC[C@H]1C(=O)O: 85.1%
C=CCOC(Cn1ccnc1)c1ccc(Cl)cc1Cl (centres unmarked): 78.4%
CCc1nn(CCCN2CCN(c3cccc(Cl)c3)CC2)c(=O)n1CCOc1ccccc1: 6.25%

Block 2 — observed: enzyme activity; mode: inhibitor; tested at: 0.5 µM; reference: control; endpoint: remaining activity
Target: Serine/threonine-protein kinase 25 (STK25, Homo sapiens, UniProt O00506)
Chain of UniProt O00506 (whole entry, looked up): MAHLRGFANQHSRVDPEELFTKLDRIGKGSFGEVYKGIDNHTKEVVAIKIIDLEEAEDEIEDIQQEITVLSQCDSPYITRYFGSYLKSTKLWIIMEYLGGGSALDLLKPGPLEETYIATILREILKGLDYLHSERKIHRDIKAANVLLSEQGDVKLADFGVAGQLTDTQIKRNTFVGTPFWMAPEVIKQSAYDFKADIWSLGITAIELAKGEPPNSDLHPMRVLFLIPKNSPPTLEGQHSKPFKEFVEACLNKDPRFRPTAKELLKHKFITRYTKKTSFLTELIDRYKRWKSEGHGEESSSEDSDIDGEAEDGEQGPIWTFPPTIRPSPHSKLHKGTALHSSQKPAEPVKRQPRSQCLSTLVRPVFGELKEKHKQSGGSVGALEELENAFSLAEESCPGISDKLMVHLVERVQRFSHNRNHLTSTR
Cc1ccc(S(=O)(=O)/C=C/C#N)cc1: 89.6%
O=C1Nc2ccccc2/C1=C\c1c(Cl)[nH]c2ccccc12: 97.7%
CN1CCN(c2ccc3nc(-c4c(N)c5c(F)cccc5[nH]c4=O)[nH]c3c2)CC1: 86%
Cc1cc(Nc2cc(N3CCN(C)CC3)nc(Sc3ccc(NC(=O)C4CC4)cc3)n2)[nH]n1: 94.8%
O=c1cc(N2CCOCC2)oc2c(-c3ccccc3)cccc12: 116%
N#Cc1cnc2cnc(NCc3cccnc3)cc2c1Nc1ccc(F)c(Cl)c1: 95.6%
COc1ccc(COc2ccc(Cc3cnc(N)nc3N)cc2OC)cc1: 97%
O=Nc1c(-c2c(O)[nH]c3cc(Br)ccc23)[nH]c2ccccc12: 96.3%
COc1cccc(-c2cc(=O)c3ccccc3o2)c1N: 106%
c1ccc2c(-c3ccncc3)c[nH]c2c1: 117%
O=C1NC(=O)c2c1c1c3ccccc3[nH]c1c1[nH]c3cc(Br)ccc3c21: 84.4%
CCCNC(=O)Nc1ccc(Oc2ncnc3cc(OC)c(OC)cc23)cc1Cl: 92.6%
CCCCc1c(-c2ccc(OC)cc2)[nH]c2nccnc12: 90.3%
O=C(c1cc2cc(O)ccc2[nH]1)c1cc2cc(O)ccc2[nH]1: 105%
O=C1Nc2ccc(Br)cc2/C1=C/c1cc2c([nH]1)CCCC2: 102%
O=C1Cc2c([nH]c3ccc(Br)cc23)-c2ccccc2N1: 98.8%
O=C1NC(=O)c2c1c1c3ccccc3[nH]c1n1cncc21: 72.5%
COc1ccc2c(c1)c(C1=C(c3c[nH]c4ccccc34)C(=O)NC1=O)cn2CCCN(C)C: 55.7%
Oc1cccc(-c2nc(N3CCOCC3)c3oc4ncccc4c3n2)c1: 93.4%
c1ccc(-c2n[nH]c3c2oc2ccccc23)cc1: 89.6%
CN(C)S(=O)(=O)c1ccc2c(c1)/C(=C/c1cc3c([nH]1)CCCC3)C(=O)N2: 79.6%

Block 3 — observed: enzyme activity; mode: inhibitor; tested at: 10 µM; endpoint: inhibition
Target: Calcium/calmodulin-dependent protein kinase type II subunit alpha (CAMK2A, Homo sapiens, UniProt Q9UQM7)
Chain of UniProt Q9UQM7 (whole entry, looked up): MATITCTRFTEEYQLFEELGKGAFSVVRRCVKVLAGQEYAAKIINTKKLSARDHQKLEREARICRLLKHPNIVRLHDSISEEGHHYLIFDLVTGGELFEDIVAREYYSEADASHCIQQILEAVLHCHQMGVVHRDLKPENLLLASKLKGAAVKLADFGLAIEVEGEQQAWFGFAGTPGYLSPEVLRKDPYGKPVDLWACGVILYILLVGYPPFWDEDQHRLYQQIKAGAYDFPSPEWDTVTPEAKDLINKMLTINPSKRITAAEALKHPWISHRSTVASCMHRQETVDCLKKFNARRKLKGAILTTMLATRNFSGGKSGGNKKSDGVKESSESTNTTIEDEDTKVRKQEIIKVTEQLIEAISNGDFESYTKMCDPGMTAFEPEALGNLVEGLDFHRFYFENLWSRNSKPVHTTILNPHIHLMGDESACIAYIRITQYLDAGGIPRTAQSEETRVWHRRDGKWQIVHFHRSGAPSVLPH
C#C[C@]1(O)CC[C@H]2[C@@H]3CCc4cc(O)ccc4[C@H]3CC[C@@]21C: 11%
CCOC(=O)OC(C)OC1=C(C(=O)Nc2ccccn2)N(C)S(=O)(=O)c2ccccc21 (centres unmarked): -10%
CCn1c(=O)c(-c2cc(NC(=O)Nc3ccccc3)c(F)cc2Br)cc2cnc(NC)cc21: -7%
Nc1ncnc2c1ncn2[C@@H]1O[C@H](COP(=O)(O)O)[C@@H](O)[C@H]1O: -0.07% and 0.06%
Cn1cc(-c2cc3c(N4CCN(c5ncc([C@@](C)(N)c6ccc(F)cc6)cn5)CC4)ncnn3c2)cn1: -3%
CC(C)=CCc1c(O[C@@H]2O[C@H](CO)[C@@H](O)[C@H](O)[C@H]2O)cc(O)c2c(=O)c(O[C@@H]3O[C@@H](C)[C@H](O)[C@@H](O)[C@H]3O)c(-c3ccc(O)cc3)oc12: -4%
C[C@@H]1O[C@@H](O[C@H]2C(=O)c3c(O)cc(O)cc3O[C@@H]2c2ccc(O)c(O)c2)[C@H](O)[C@H](O)[C@H]1O: -11%
CC(C)CCC[C@@H](C)[C@H]1CC[C@H]2[C@@H]3CC[C@H]4CC(=O)CC[C@]4(C)[C@H]3CC[C@]12C: -7%
CN1CC(=O)N2[C@H](c3ccc4c(c3)OCO4)c3[nH]c4ccccc4c3C[C@@H]2C1=O: 0%
Cc1ccc(-c2cc(C(F)(F)F)nn2-c2ccc(S(N)(=O)=O)cc2)cc1: -1%

Block 4 — method: competition with immobilised ligand; tested at: 1 µM; endpoint: remaining binding
SMILES: O=C(Nc1cccnn1)N1CC(C/C=C/c2cncc(Oc3ccc(C(F)(F)F)cn3)n2)C1
Myosin-IIIa (MYO3A, Homo sapiens, UniProt Q8NEV4); binding: 100%
WEE2 (Homo sapiens, UniProt P0C1S8); cell-free assay: 100%
INSRR (Homo sapiens, UniProt P14616); cell-free assay: 100%
RIPK4 (Homo sapiens, UniProt P57078); cell-free assay: 74%
Aurora kinase B (AURKB, Homo sapiens, UniProt Q96GD4); cell-free assay: 59%
CAMKK2 (Homo sapiens, UniProt Q96RR4); cell-free assay: 100%
RIOK3 (Homo sapiens, UniProt O14730); cell-free assay: 100%
STK38L (Homo sapiens, UniProt Q9Y2H1); cell-free assay: 100%
DDR2 (Homo sapiens, UniProt Q16832); cell-free assay: 80%
FLT3 (Homo sapiens, UniProt P36888, ITD); cell-free assay: 100%
MKNK1 (Homo sapiens, UniProt Q9BUB5); cell-free assay: 67%
ROCK2 (Homo sapiens, UniProt O75116); cell-free assay: 90%
MAPKAPK2 (Homo sapiens, UniProt P49137); cell-free assay: 100%
LYN (Homo sapiens, UniProt P07948); cell-free assay: 97%
NEK6 (Homo sapiens, UniProt Q9HC98); cell-free assay: 100%
PKN2 (Homo sapiens, UniProt Q16513); cell-free assay: 100%
IKBKE (Homo sapiens, UniProt Q14164); cell-free assay: 77%
MAP2K6 (Homo sapiens, UniProt P52564); cell-free assay: 100%
CAMK2D (Homo sapiens, UniProt Q13557); cell-free assay: 100%
PAK1 (Homo sapiens, UniProt Q13153); cell-free assay: 90%
KDR (Homo sapiens, UniProt P35968); cell-free assay: 64%
Myosin-IIIb (MYO3B, Homo sapiens, UniProt Q8WXR4); binding: 100%
FER (Homo sapiens, UniProt P16591); cell-free assay: 100%
DCLK2 (Homo sapiens, UniProt Q8N568); cell-free assay: 100%
DSTYK (Homo sapiens, UniProt Q6XUX3); cell-free assay: 65%
